Published values from different studies.
Every numbered part comes from another study and shows a few of its results, in no order. Substitutions count along the parent as printed.

Sample 1 — technique: RNA Bind-n-Seq; form: RNA; matrix: in vitro; tested at: 1 µM; setting: whole 134-nt RNA, ends assumed; added: 150 mM KCl; baseline: input library; direction: higher = stronger binding
Target: Ras GTPase-activating protein-binding protein 1, RRM domain (G3BP1, Homo sapiens, UniProt Q13283)
Chain of UniProt Q13283 (whole entry, looked up): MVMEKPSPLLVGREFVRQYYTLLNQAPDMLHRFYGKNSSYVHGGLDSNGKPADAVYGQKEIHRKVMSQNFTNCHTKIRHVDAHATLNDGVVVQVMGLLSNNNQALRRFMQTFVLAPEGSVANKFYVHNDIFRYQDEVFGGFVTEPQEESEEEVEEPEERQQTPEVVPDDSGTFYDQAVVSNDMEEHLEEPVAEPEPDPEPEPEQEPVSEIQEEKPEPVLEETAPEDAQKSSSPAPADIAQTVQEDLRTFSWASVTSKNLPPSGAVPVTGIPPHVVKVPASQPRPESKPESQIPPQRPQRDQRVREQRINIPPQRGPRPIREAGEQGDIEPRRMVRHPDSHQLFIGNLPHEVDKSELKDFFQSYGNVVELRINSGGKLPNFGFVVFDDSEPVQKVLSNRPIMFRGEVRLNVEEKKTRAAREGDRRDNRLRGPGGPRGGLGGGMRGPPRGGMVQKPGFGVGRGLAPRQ
Constant ends, left off below: GGGAGUUCUACAGUCCGACGAUC … UGGAAUUCUCGGGUGUCAAGG
Oligonucleotide	log2 enrichment
UGGUGUUAUUUUUGCACUACAAGGGCUCUGAAGACUGCCAGGCUUGAAAUGAAGAACGAUGUCACCUGCCUAUCACAGCCAGGUGACAAU	-0.661
CCUGUGCUACACAUCGUAUGUACCGAAUCGGGCCCCCCGGGGCCCCCCGGCCCCCCGGGGAAAGUAUUAUGUUACGCCGUUCGGAUCUGC	-0.652
UGGCCCUGGUGGCAUGCAGGGAGGAAGAGGUGGCCUCAUGGAUCGUGGUGGUCCCGGUGGAAUGUUCAGAGGUGGCCGUGGUGGAGACAG	0.728
GGUAGCAAGAGCUCCAGAGAGAAGUCGAGGAAGAGAGAGACGGGGUCAGAGAGAGCGCGCGGGCGUGCGAGCAGCGAAAGCGACAGGGGC	-0.265
GCAGGAAGUAAAAACAAAUGGCAAUGCUUCGGAUAGUGGCAGGGGUGGGGGUUGCUAAGGAAAGGGUGGGAUGGGAGUGGGUAAAGAGUU	1.32
GCAGGAAGUUAAAACAAAUGGAAAUGCUUCGGAUAGUGGCAGGGGUGGGGGUUGCUAAGGAAAGGGUGGGAUGGGAGUGGGUAAAGAGUU	1.23
CACAGACAACACGCACCCACACAGACACAGAGGGAAGGGGUUGGGAUGGGGACAGGGUGCAAAGCAGGGCGGGGUAGGACCCCAGCCCCU	-0.13
GUCAAGUGCUUCUGCUCCUGAUGUGGAUGACCCAGAGGCAUUCCCAGCUCUGGCUUAACUGGAUGCCAUAAGACAACCCUGGUUCCUUUG	-0.0515
CCUCAAGUCCUGUGCUACACAUCGUAUGUACCGAAUCGGGCGGGGCGGGGCGGAAAGUAUUAUGUUACGCCGUUCGGAUCUGCACUUCCA	-0.126
UGGCCCUGGUGUCAUGCGGGGAGGAAGAGGUGGCCUCAUGGAUCGUGGUGGUCCCGGUGGAAUGUUCAGAGGUGGCCGUGGUGGAGACAG	0.846

Sample 2 — technique: universal PBM; form: double-stranded DNA, one strand shown; matrix: in vitro; tested at: not given; direction: higher = stronger binding
Target: Sal-like protein 4, full length isoform B (SALL4, Homo sapiens, UniProt Q9UJQ4-2, residues 1-616)
Setting: 8-mer, flanks averaged, mean of replicates
Residues (chain): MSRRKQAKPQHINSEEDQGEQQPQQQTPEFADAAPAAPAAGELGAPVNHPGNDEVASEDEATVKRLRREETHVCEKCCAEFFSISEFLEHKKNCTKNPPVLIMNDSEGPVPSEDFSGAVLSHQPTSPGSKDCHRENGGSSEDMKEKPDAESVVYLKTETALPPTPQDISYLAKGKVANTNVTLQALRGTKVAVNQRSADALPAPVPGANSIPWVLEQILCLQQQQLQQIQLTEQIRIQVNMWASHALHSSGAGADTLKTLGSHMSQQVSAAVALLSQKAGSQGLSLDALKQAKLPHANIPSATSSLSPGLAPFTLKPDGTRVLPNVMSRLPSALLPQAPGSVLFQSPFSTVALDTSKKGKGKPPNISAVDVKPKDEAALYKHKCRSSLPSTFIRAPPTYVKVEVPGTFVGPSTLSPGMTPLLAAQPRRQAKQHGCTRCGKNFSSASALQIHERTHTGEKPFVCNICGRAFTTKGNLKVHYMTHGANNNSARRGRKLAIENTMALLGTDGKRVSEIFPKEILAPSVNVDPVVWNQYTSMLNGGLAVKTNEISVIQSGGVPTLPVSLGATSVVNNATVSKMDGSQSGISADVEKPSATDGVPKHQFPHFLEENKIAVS
Oligonucleotide	E-score
AGCCCGCC	-0.374
CAAAACGC	-0.00236
ACAACGGA	-0.0116
CGTCGAGA	-0.102
ACCGTGGA	-0.226
ATCATGGG	-0.163
AAAAAGGT	0.0179
CAGTCTCG	-0.152
AGCTCGCA	-0.23
CAGGTTCC	-0.31
CGCCGCAC	-0.306
ACAGTGGG	-0.227
CCGGACCC	-0.35
GAGACGGC	-0.21
AGTGAATA	0.197
TCATTACA	0.276
ATAATGGG	0.284
ACGCATCC	-0.211
CTTGGTAC	0.0199
CTTTACAC	0.0839
CCAGTCGG	-0.215
AAGGTAGG	0.0326
GCTCATCA	-0.0103
AGTCCAGC	-0.262
CTATCTTC	0.144

Sample 3 — technique: protein binding microarray; form: double-stranded DNA, one strand shown; matrix: in vitro; tested at: not given; baseline: not given; direction: higher = stronger binding
Target: Histone acetyltransferase KAT6A, winged helix 1, GST fusion (KAT6A, Homo sapiens, UniProt Q92794, residues 1-85)
Setting: 8-mer, flanks averaged, mean of 2 arrays, mostly near background
Residues (chain): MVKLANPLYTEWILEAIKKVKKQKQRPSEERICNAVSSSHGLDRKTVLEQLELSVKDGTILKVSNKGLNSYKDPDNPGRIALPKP
Oligonucleotide	E-score
ACAAAGAA	-0.191
ATAGGTTC	0.0449
AGGTTGAG	-0.263
AGTTGGAA	-0.109
ATTTGTAC	-0.0971
AACGTCAA	-0.0615
AAATTCTA	-0.18
CTTACCCC	-0.132
GTCTCACA	-0.0238
GAAGGCAC	0.00562
GCTTCCCA	0.0751
AGCTGTCG	-0.00136
ACCGTACC	0.186
GCGTAGGA	0.204
GTTTGGTA	-0.0132
CCAGACGG	0.158
ATCAGCAG	-0.0126
CATGGCAG	-0.0981
ATATGAAC	-0.098
GCGTTTTA	0.173
ACTCGGCT	0.135
AGCAAGCA	-0.152

Sample 4 — target: CCNA2, cyclin fold, Cln2 fusion (human); technique: yeast growth competition, sequencing; matrix: yeast; setting: strong parent motif; baseline: not given; direction: higher = stronger binding
Parent: E2F1 docking peptide (human); PPVKRRLDFETDH; partner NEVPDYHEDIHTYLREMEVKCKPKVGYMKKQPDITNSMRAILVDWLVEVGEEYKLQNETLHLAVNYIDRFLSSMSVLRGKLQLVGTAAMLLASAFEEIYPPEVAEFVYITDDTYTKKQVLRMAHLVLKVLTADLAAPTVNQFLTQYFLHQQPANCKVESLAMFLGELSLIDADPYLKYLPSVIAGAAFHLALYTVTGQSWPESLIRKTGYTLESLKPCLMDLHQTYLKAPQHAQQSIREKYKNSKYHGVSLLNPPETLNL
Variant	normalised enrichment score
E10G	6.32
E10M	6.3
R5H	1.7
D12F	6.29
F9V	1.99
V3N	2.05
D12V	6.12
L7R	-0.00127
E10S	5.95
P2G	6.37
L7T	0.248
L7V	3.12
P2F	6.1
R6T	4.94
R5T	3.16
K4T	4.71
R5Q	3.07
L7K	0.232
R6Y	4.84
E10L	6.19
P2C	6.2
T11R	6.02
V3H	4.61
E10W	6.81
E10Y	6.56

Sample 5 — technique: protein-binding microarray; form: double-stranded DNA, one strand shown; matrix: in vitro; tested at: 2540 nM top; setting: 60-bp whole probe; added: salmon DNA 0.4 mg/ml; baseline: random background probes; direction: higher = stronger binding; constant ends, left off below: GCCTAGCAC … GTCTTGATTCGCTTGACGCTGCTG
Target: Interferon regulatory factor 3, full length, phosphomimetic (IRF3, Homo sapiens, UniProt Q14653, residues 1-427, S386D/S396D/S398D/S402D/T404D/S405D)
Chain of UniProt Q14653 (whole entry, unmodified, looked up): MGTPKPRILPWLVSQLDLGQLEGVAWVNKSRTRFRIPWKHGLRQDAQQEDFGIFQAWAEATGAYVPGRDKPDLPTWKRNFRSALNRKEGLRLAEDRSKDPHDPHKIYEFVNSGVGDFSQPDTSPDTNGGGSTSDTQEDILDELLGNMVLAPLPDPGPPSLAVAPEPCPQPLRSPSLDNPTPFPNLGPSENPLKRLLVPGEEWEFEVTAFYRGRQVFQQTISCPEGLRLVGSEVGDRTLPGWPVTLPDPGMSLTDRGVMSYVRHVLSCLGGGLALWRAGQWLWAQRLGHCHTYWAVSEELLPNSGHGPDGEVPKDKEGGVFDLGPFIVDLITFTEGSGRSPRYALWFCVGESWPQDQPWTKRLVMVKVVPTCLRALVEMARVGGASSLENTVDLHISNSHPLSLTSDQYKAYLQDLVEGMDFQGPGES
Oligonucleotide	fitted relative affinity [z-score]
GACGGTTTCCATTCCCTGACGTGCTAG	7.77
GACGTTTTCGGGTATCGAGACGTGCTA	2.18
TCACTTCTGGTGCTCATACTGTGCTAG	0.944
TTAGGTTTCCTACTGCTTTGGTGCTAG	4.68
TTAGGTTCCGGTTTCGGTTAGTGCTAG	7.72
AGACATGACACCACTCCTGAGTGCTAG	-0.347
CCGTGTTTCTCAAATGTTTTGGTGCTA	0.776
GACGGTCTCCTTGTCCTGACGTGCTAG	1.2
GACGATATCGCGTATCGAGACGTGCTA	0.0912
GACGGACTGGAACTGGGGACGTGCTAG	-0.56
GACGGTATCGGTCTCGGGTCGTGCTAG	4.72
TTAGGACTGGGATTGGGTTAGTGCTAG	-0.79
GACGGACTGGACACGGGGGACGTGCTA	-0.226
TTAGGTTTCGGACTGCGTTAGTGCTAG	4.27
GGCTTCCTCTTTCTCTGCTAGTGCTAG	1.5
TTAGGTATCGGTATCGGTTTGTGCTAG	6.55
